# Measurements collected from several papers.
# Lines come from different studies, so protocols differ. ± gives the spread as reported.
Structure (SMILES),target or system,test,test system,conditions,how to read,measurement,result
C[n+]1ccc(/C=N/NC(=O)c2cccc(C(=O)N/N=C/c3cc[n+](C)cc3)c2)cc1,myc22 MYC G4-DNA parallel,FRET melting,,"1 µM, K1 buffer, DNA 0.2 µM",,ΔTm,2.8 ± 0.3 °C
CCN(C(=O)c1cc(F)ccc1Oc1nncnc1N1CCC2(C1)CN([C@H](CCCN(C)CCOC)C(C)C)C2)C(C)C,A673,,muscle,168 h,,GI50,> 10 µM
CN1CCC[C@]1(C)/C=C/S(=O)(=O)NC(=O)Nc1c2c(cc3c1CCC3)CCC2,,,"human, whole blood ex vivo","25 mg single dose, 24 h, single ascending dose, added: LPS and ATP",,IL-1β inhibition,49.8%
NCCOCCO.O=C(O)C(Cl)Cl,Eclipta prostrata,,,"15 mg/mL, 21 days, post-emergence, greenhouse",,herbicidal inhibition,0%
C[n+]1ccc(/C=N/NC(=O)c2cc(C(=O)N/N=C/c3cc[n+](C)cc3)ncn2)cc1,myc22 MYC G4-DNA parallel,FRET melting,,"1 µM, K1 buffer, DNA 0.2 µM, added: ds26 10 µM",,ΔTm,3.4 ± 0.3 °C
c1ccc(-c2n[nH]cc2-c2ccnc3ccccc23)nc1,GCN2 (Candida albicans),"kinase binding, MIB/MS competition",Candida albicans lysate,1 µM,baseline: DMSO,log2 fold change,-0.24
CC[n+]1cccc2cc(/C=N/NC(=O)c3ccc4ccc5ccc(C(=O)N/N=C/c6ccc7c(ccc[n+]7CC)c6)nc5c4n3)ccc21,myc22 MYC G4-DNA parallel,FRET melting,,"1 µM, K1 buffer, DNA 0.2 µM",,ΔTm,29.4 ± 0.5 °C
COc1ccc2cc3[n+](cc2c1OCCCOC(=O)c1cscn1)CCc1cc2c(cc1-3)OCO2,,,"C57BL/6 mice, high-fat diet","oral gavage, 40 mg/kg daily, 14 weeks",baseline: HFD control,plasma triglyceride reduction,38.7%
C=C(NC(=O)c1csc(-c2nc3c(cc2O)-c2nc(cs2)C(=O)NC(C(C)O)C(=O)NC(=C(C)OC)c2nc(cs2)C(=O)NC2c4nc(cs4)C(=O)NC(COC(=O)c4c5c6c(cccc6n4O)COC(=O)C(OC4CC(C)(O)C(N(C)C)C(C)O4)C2OC5)c2nc-3cs2)n1)C(N)=O (stereo not shown),Streptococcus pneumoniae,,"-4, immunocompromised mice, lung infection",tid dosing,,ED50,6.17 mg/kg
C=CC(=O)Nc1cccc(Cn2ncc3cnc(Nc4cnn(CCOC)c4)nc32)c1,STK36 human,"binding, KINOMEscan",,100 nM,lower = stronger binding,percent of control,94%
CNS(=O)(=O)Nc1nccc(Cc2c(C)c3ccc(Oc4ncccc4F)cc3oc2=O)c1F,ZR-75-30,cell viability,,7 days,,IC50,> 1 µM
C[n+]1ccc(/C=N/NC(=O)c2ccc3ccc4ccc(C(=O)N/N=C/c5cc[n+](C)cc5)nc4c3n2)cc1,myc22 MYC G4-DNA parallel,FRET melting,,"1 µM, K1 buffer, DNA 0.2 µM",,ΔTm,19.8 ± 0.5 °C
CC(=O)[O-].O.O.O.O.[Ni+2].[O-]c1ccc(Br)cc1C=NCCN1CCOCC1,,hydroxyl radical scavenging,,40 µM,,inhibition,8.17%
O=C(N/N=C/c1cc[n+](CC2CC2)c2ccccc12)c1ccc2ccc3ccc(C(=O)N/N=C/c4cc[n+](CC5CC5)c5ccccc45)nc3c2n1,myc22 MYC G4-DNA parallel,FRET melting,,"1 µM, K1 buffer, DNA 0.2 µM, added: ds26 10 µM",,ΔTm,24.1 ± 1.2 °C
Cc1ncsc1-c1ccc(C(C)NC(=O)C2CC(O)CN2C(=O)C(NC(=O)CCCCCCCCCCN2CCCC(Nc3ncc(Cl)c(Nc4ccccc4S(=O)(=O)C(C)C)n3)C2)C(C)(C)C)cc1 (stereo not shown),22Rv1,"RNA-seq, measured: SLC6A19 mRNA",,concentration not given,baseline: DMSO,log2 fold change,-1.7
O=C(N/N=C/c1cc[n+](CC2CC2)c2ccccc12)c1cccc(C(=O)N/N=C/c2cc[n+](CC3CC3)c3ccccc23)n1,myc22 MYC G4-DNA parallel,FRET melting,,"1 µM, K1 buffer, DNA 0.2 µM, added: ds26 10 µM",,ΔTm,24.6 ± 0.5 °C
CN1CCCNC(=O)c2cccc(c2)C(=O)NCCCN(C)CCCNc2cccc3c2C(=O)c2cccc(c2C3=O)NCCC1,SAS,"RNA-Seq, measured: BRCA2 mRNA",,"1 µM, 6 h",baseline: untreated cells,log2 fold change,1.05
COc1cc(O)ccc1CCC(c1ccc(O)cc1)c1cc2c(c(C)c1O)OC(c1ccc(O)cc1)CC2 (mixture of isomers),,,human blood,"30 µM, added: A23187",,EPA level,73500 ± 18000 pg/mL
C[n+]1cccc2cc(/C=N/NC(=O)C(=O)N/N=C/c3ccc4c(ccc[n+]4C)c3)ccc21,myc22 MYC G4-DNA parallel,FRET melting,,"1 µM, K1 buffer, DNA 0.2 µM, added: ds26 10 µM",,ΔTm,4.2 ± 1.1 °C
COc1ccc(C(=O)CCc2cc(C(CCc3ccc(O)cc3OC)c3ccc(O)cc3)c(O)cc2OC)cc1 (racemic),,,human blood,"3 µM, added: A23187",,EPA level,90000 ± 27200 pg/mL
C[n+]1ccc(/C=N/NC(=O)c2ccc3ccc4ccc(C(=O)N/N=C/c5cc[n+](C)c6ccccc56)nc4c3n2)c2ccccc21,myc22 MYC G4-DNA parallel,FRET melting,,"1 µM, K1 buffer, DNA 0.2 µM, added: ds26 10 µM",,ΔTm,24.7 ± 0.4 °C
COC1CN([C@H]2CC[C@H]([C@@]3(C)Oc4c(Cl)cc(C(=O)NCc5c(SC)cc(C)[nH]c5=O)c(C)c4O3)CC2)C1,,"RNA-seq, measured: MPV17L mouse homolog","mouse, HT-1376 xenograft, whole blood",dose not given,baseline: vehicle,log2 fold change,1.01
Nc1ncc(-c2cc(-c3cnn(CC(F)(F)F)c3)ncc2F)nc1C(=O)NC1CNCC(F)C1 (stereo not shown),PAK3,KINOMEscan,,1 µM,baseline: DMSO control,remaining binding,13%
C=CC(=O)N1[C@@H](c2ccc3c(c2)OCO3)c2[nH]c3ccccc3c2C[C@H]1C(=O)N1CCN(C)CC1,human cyclin E1 N112C-3xFLAG:CDK2,"co-IP with TMT proteomics, measured: BCLAF1",,"concentration not given, Q9NYF8",baseline: wild type DMSO,relative co-enrichment,128%
CCN(CC)CC(=O)Nc1cccc(-n2cc(-c3ccc4ccc(-c5cn(-c6cccc(NC(=O)CN(CC)CC)c6)nn5)cc4c3)nn2)c1,RCC4,"PCR angiogenesis array, measured: MDK",,"5 x IC50, 2 h, normoxia",baseline: untreated,fold regulation,1.24

# Some of these lines once more:
Structure (SMILES),target or system,test,test system,conditions,how to read,measurement,result
COc1ccc(C(=O)CCc2cc(C(CCc3ccc(O)cc3OC)c3ccc(O)cc3)c(O)cc2OC)cc1 (racemic),,,human blood,"3 µM, added: A23187",,EPA level,90000 ± 27200 pg/mL
C[n+]1ccc(/C=N/NC(=O)c2ccc3ccc4ccc(C(=O)N/N=C/c5cc[n+](C)c6ccccc56)nc4c3n2)c2ccccc21,myc22 MYC G4-DNA parallel,FRET melting,,"1 µM, K1 buffer, DNA 0.2 µM, added: ds26 10 µM",,ΔTm,24.7 ± 0.4 °C
